{"data": "Results of several laboratories", "note": "Numbered parts are unrelated; each lists some results of a single study. Positions count from the first letter of the parent shown."}
{"data": "Study 1", "target": "CREB3L4, bZIP domain (human)", "method": "DHFR protein complementation", "sample": "yeast", "setting": "single substitutions, most at no-binding floor", "relative to": "wild-type JUN-FOS pair", "direction": "higher = stronger binding", "parent": "JUN, bZIP domain (human); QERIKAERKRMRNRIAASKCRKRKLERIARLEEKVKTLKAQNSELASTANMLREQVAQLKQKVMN; partner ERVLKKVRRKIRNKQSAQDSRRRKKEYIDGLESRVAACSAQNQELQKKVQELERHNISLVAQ"}
{"Variant": "L31I", "binding fitness": "-1.52 natural log"}
{"Variant": "R53Q", "binding fitness": "-1.44 natural log"}
{"Variant": "A40W", "binding fitness": "-1.58 natural log"}
{"Variant": "S43H", "binding fitness": "-1.58 natural log"}
{"Variant": "A29R", "binding fitness": "-1.49 natural log"}
{"Variant": "L52H", "binding fitness": "-1.54 natural log"}
{"Variant": "L45Q", "binding fitness": "-1.51 natural log"}
{"Variant": "A46L", "binding fitness": "-1.45 natural log"}
{"data": "Study 2", "target": "PABPC1L2, full length, GST fusion (mouse, UniProt A0ABA7IW68)", "method": "RNAcompete", "form": "RNA", "sample": "in vitro", "tested at": "20 nM", "setting": "7-mer, probes averaged, single round", "relative to": "mean of 7-mers", "direction": "higher = stronger binding", "Residues (chain)": "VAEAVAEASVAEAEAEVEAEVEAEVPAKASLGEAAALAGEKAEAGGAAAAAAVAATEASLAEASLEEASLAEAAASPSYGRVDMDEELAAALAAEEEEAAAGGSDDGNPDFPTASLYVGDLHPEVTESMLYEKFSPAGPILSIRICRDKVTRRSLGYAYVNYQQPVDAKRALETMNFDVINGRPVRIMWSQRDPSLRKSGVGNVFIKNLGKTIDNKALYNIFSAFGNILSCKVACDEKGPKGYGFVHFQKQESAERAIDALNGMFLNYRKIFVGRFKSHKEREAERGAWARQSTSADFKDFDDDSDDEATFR"}
{"Oligonucleotide": "GGCACAA", "7-mer Z-score": 0.3}
{"Oligonucleotide": "GAAUGUU", "7-mer Z-score": -0.266}
{"Oligonucleotide": "GUCUUGU", "7-mer Z-score": -0.445}
{"Oligonucleotide": "UCUCAAG", "7-mer Z-score": -0.237}
{"Oligonucleotide": "GGAGGGC", "7-mer Z-score": 0.256}
{"Oligonucleotide": "GCGGCGU", "7-mer Z-score": -0.00289}
{"Oligonucleotide": "AAUCUAA", "7-mer Z-score": 0.066}
{"Oligonucleotide": "GCGAUUA", "7-mer Z-score": 0.0152}
{"data": "Study 3", "target": "Cellular tumor antigen p53, full length (TP53, Homo sapiens, UniProt P04637, residues 1-393)", "method": "protein-binding microarray", "form": "hairpin DNA", "sample": "in vitro", "tested at": "not given", "setting": "whole hairpin DNA, median over replicate spots", "relative to": "not given", "direction": "higher = stronger binding"}
{"Oligonucleotide": "CCACACGTGGTGGCGTGCCTTCCTAGGCACGCCACCACGTGTGGACACTC (5mC at 30)", "median fluorescence [a.u.]": 6140}
{"Oligonucleotide": "CCACACGTGGCGGCATGCCTTCCTAGGCATGCCGCCACGTGTGGACACTC (5mC at 33)", "median fluorescence [a.u.]": 6780}
{"Oligonucleotide": "CCACACGTCGTGGCATGCCTTCCTAGGCATGCCACGACGTGTGGACACTC (5mC at 9)", "median fluorescence [a.u.]": 7480}
{"Oligonucleotide": "CCACGCGTGGTGGCATGCCTTCCTAGGCATGCCACCACGCGTGGACACTC (5mC at 40)", "median fluorescence [a.u.]": 7500}
{"Oligonucleotide": "CGGACATGTCCGGGCATGTCTCCTGACATGCCCGGACATGTCCGACACTC", "median fluorescence [a.u.]": 21200}
{"Oligonucleotide": "CGGACATGCCCGGGCATGTCTCCTGACATGCCCGGGCATGTCCGACACTC (5mC at 11 33)", "median fluorescence [a.u.]": 21900}
{"Oligonucleotide": "CGGACATCGCCGGGCATGTCTCCTGACATGCCCGGCGATGTCCGACACTC (5mC at 8 36)", "median fluorescence [a.u.]": 12500}
{"Oligonucleotide": "CCACACGTGGTGGGATGCCTTCCTAGGCATCCCACCACGTGTGGACACTC", "median fluorescence [a.u.]": 4030}
{"data": "Further values, each from its own experiment"}
{"SMILES": "O=C(O)[C@@H]1[C@@H](Cn2nnc3ccccc3c2=O)CC[C@H]1C(=O)c1ccc(OCCC2CCOCC2)cc1", "target": "Receptor-type tyrosine-protein kinase FLT3 (FLT3, Homo sapiens, UniProt P36888, R834Q)", "assay": "cell-free assay, competition with immobilised ligand", "setting": "1 µM", "quantity": "remaining binding", "result": "100%"}
{"note": "A few entries again (further values, each from its own experiment):"}
{"SMILES": "O=C(O)[C@@H]1[C@@H](Cn2nnc3ccccc3c2=O)CC[C@H]1C(=O)c1ccc(OCCC2CCOCC2)cc1", "target": "Receptor-type tyrosine-protein kinase FLT3 (FLT3, Homo sapiens, UniProt P36888, R834Q)", "assay": "cell-free assay, competition with immobilised ligand", "setting": "1 µM", "quantity": "remaining binding", "result": "100%"}
